Experimental data from different studies.
Numbered parts are unrelated; each lists some results of a single study.
Sequence of UniProt P42336 (whole entry, unmodified, looked up): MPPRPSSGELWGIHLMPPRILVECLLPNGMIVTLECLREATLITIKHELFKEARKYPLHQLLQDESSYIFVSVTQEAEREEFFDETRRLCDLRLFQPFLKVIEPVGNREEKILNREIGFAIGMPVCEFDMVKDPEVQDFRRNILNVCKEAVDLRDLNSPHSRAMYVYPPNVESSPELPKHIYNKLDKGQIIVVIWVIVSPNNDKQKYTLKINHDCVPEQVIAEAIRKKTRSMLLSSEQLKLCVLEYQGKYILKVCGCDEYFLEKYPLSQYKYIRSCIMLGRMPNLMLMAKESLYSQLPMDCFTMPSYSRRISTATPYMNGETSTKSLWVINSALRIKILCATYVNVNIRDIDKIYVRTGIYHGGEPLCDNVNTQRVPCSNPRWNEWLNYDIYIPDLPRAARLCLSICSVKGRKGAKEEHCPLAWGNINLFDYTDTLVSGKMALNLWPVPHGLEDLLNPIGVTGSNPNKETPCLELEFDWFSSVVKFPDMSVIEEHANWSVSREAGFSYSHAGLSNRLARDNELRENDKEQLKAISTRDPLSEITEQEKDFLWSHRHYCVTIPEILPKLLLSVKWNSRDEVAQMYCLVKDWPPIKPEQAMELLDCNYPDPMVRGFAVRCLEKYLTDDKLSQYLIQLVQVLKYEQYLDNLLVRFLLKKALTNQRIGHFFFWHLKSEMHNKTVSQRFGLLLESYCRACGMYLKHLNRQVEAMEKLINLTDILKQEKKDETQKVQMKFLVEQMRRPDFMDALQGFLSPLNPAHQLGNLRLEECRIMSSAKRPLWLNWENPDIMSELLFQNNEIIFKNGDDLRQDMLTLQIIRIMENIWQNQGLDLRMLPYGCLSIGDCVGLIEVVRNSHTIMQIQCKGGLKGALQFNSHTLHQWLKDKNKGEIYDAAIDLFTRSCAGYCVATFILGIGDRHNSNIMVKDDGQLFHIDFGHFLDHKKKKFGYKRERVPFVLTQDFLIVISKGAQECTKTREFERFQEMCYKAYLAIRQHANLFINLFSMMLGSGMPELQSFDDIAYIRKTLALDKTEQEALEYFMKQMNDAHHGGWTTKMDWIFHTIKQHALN
Sequence of UniProt P48730 (whole entry, looked up): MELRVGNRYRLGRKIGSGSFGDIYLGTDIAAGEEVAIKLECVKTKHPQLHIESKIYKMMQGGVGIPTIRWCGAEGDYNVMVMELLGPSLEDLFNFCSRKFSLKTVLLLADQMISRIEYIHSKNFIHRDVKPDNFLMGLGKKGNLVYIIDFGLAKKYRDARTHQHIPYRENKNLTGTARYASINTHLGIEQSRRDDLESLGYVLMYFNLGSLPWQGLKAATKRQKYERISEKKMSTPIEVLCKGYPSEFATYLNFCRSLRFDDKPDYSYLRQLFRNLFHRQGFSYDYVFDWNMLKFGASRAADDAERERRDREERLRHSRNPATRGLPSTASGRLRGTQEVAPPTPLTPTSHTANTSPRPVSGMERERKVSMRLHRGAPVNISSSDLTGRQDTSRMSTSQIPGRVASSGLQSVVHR
Sequence of UniProt P10721 (whole entry, looked up): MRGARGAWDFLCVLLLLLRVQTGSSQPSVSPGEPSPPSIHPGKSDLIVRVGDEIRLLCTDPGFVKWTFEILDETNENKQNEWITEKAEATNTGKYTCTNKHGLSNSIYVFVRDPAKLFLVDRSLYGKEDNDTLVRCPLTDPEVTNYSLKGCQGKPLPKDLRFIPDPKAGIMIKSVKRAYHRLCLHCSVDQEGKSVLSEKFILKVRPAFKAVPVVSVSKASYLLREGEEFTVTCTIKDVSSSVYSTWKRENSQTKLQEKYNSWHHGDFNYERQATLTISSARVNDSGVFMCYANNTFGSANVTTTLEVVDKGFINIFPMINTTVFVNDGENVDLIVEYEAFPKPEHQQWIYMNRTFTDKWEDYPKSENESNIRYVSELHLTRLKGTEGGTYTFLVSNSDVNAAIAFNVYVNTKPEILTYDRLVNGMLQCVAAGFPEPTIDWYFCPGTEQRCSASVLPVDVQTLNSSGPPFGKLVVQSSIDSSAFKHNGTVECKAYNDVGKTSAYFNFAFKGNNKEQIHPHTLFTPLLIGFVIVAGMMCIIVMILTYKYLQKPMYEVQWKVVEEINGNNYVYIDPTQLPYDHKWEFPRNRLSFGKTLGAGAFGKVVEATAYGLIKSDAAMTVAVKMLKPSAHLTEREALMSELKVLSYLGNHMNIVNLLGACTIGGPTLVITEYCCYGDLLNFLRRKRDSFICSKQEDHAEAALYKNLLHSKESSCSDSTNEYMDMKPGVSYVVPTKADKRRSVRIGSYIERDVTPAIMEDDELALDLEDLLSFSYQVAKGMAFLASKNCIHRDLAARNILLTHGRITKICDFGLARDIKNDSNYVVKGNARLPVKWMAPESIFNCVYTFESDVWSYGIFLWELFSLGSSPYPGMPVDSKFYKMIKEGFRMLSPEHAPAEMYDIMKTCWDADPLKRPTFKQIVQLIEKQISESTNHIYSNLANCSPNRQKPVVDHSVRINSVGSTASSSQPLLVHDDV
Sequence of UniProt P28482 (whole entry, looked up): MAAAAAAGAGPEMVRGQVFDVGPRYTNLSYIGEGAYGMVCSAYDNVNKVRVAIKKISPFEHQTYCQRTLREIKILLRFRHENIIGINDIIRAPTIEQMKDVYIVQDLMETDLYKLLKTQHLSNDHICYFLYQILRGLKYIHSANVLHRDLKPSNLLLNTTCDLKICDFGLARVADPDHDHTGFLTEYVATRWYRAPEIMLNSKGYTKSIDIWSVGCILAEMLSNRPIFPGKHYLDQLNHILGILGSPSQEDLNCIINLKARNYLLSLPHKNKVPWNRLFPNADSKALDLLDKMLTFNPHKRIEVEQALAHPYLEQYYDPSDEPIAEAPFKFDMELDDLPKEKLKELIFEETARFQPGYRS
Sequence of UniProt Q9NYL2 (whole entry, looked up): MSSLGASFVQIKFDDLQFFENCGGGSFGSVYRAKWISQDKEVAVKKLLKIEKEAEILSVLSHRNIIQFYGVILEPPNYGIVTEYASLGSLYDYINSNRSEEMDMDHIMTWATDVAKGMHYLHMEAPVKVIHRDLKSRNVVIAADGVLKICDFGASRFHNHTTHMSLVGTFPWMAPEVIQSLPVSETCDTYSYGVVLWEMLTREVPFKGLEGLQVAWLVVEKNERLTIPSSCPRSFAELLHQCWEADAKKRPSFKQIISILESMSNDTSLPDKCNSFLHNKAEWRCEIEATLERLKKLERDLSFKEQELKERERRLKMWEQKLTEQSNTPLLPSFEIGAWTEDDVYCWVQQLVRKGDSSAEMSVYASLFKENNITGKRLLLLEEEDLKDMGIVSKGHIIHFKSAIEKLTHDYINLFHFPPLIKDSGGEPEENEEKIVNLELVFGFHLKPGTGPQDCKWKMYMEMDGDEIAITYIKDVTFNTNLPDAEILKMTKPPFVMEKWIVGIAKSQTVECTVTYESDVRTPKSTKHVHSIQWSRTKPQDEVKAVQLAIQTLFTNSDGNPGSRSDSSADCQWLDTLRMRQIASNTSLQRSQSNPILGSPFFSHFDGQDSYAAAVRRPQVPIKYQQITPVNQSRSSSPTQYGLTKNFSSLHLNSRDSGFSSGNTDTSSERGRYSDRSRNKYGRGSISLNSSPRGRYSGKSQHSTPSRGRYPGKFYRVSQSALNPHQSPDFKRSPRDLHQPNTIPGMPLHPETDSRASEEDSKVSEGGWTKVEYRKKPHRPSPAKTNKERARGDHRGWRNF
Sequence of UniProt Q9Y616 (whole entry, looked up): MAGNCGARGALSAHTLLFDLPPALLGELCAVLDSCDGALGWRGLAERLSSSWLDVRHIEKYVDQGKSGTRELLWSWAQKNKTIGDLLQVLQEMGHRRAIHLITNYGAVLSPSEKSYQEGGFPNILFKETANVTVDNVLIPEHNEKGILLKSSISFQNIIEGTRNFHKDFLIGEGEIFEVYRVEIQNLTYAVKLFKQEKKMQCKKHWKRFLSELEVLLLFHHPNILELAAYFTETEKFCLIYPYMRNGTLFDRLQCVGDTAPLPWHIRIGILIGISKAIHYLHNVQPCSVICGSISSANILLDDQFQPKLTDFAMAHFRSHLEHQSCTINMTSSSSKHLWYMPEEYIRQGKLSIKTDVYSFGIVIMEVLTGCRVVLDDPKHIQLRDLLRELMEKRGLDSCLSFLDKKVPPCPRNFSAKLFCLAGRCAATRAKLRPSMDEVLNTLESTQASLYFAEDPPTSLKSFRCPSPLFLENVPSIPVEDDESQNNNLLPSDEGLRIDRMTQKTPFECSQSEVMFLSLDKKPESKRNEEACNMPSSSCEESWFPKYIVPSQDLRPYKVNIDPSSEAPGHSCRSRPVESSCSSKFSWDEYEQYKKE
Sequence of UniProt Q00532 (whole entry, looked up): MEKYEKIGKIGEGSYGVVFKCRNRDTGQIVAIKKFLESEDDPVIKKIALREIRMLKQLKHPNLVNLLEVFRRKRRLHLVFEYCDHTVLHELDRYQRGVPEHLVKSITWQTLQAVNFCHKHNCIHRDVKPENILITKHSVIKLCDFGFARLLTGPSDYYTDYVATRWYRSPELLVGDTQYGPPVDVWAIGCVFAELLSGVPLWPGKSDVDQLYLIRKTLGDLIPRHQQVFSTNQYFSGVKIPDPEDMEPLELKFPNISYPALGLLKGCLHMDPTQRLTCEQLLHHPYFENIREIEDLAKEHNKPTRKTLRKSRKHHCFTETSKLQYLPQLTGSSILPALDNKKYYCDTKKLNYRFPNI
Sequence of UniProt Q9HBY8 (whole entry, looked up): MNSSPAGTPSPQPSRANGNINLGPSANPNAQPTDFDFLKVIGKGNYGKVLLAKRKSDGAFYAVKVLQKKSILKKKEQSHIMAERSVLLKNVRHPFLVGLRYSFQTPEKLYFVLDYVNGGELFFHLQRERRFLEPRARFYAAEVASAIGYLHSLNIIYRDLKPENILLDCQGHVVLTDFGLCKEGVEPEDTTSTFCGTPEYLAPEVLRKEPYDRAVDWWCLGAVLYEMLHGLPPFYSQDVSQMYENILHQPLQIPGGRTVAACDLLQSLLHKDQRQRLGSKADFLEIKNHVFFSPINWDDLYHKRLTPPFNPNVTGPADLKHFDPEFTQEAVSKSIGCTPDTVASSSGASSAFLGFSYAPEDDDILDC

Sample 1 — read-out: enzyme activity; action: inhibitor; concentration: 0.5 µM; baseline: control
Target: Aurora kinase A (AURKA, Homo sapiens, UniProt O14965)
Residues (O14965 1-403): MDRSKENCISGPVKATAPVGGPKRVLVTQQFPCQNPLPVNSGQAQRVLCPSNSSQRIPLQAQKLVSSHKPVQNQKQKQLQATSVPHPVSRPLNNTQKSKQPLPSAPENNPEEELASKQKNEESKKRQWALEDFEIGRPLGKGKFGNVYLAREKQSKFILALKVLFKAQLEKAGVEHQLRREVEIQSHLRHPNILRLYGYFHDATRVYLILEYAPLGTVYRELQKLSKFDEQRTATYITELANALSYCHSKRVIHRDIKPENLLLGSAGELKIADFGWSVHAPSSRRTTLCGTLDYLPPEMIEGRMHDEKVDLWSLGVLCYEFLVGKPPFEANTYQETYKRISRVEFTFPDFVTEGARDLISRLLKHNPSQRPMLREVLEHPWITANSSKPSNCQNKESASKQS
Structure (SMILES) | remaining activity [%]
COc1cc2ncnc(Nc3ccc(Oc4ccccc4)cc3)c2cc1OC | 79.2
Cc1ccc(NC(=O)c2ccc(CN3CCN(C)CC3)cc2)cc1Nc1nc(-c2cccnc2)cs1 | 105
Oc1ccc(-c2nc(-c3ccncc3)c(-c3ccc(F)cc3)[nH]2)cc1 | 96.1
NCCNc1ncc(C(N)=O)c(Nc2cccc(C(F)(F)F)c2)n1 | 92.8
N#CC(C#N)=C(N)/C(C#N)=C/c1ccc(O)cc1 | 89.6
Cc1ccc(Nc2nccc(N(C)c3ccc4c(C)n(C)nc4c3)n2)cc1S(N)(=O)=O | 38.4
C#Cc1cccc(Nc2ncnc3cc(OCCOC)c(OCCOC)cc23)c1 | 75.3
Cc1nc(-c2ccccc2)c(-c2ccncc2)o1 | 91.2
Nc1ncnc2n[nH]c(Nc3ccc(F)cc3)c12 | 92.3
O=C(CCCc1ccc(-c2ccccc2F)cc1)Nc1ccc(O)cc1 | 104
COc1ccc(CNC(=O)Nc2ncc([N+](=O)[O-])s2)cc1 | 97.4
O=C1NC(=O)C(c2cn(CCCO)c3ncccc23)=C1c1cnccn1 | 107
Nc1[nH]nc2nc3ccccc3nc12 | 111
COc1cc2nccc(Oc3ccc(NC(=S)NC(=O)c4ccccc4C)cc3)c2cc1OC | 18.9
O=S(=O)(c1cccc2cnccc12)N1CCCNCC1 | 101
OCC(O)CCON=C1C(c2c(O)[nH]c3ccccc23)=Nc2ccccc21 (stereo not drawn) | 9.78

Sample 2 — read-out: cell-free assay; technique: competition with immobilised ligand; concentration: 1 µM
Compound: Nc1cnc(N2CCc3cc(S(=O)(=O)Nc4c(F)cc(Cl)cc4F)cc(N4CCCC4=O)c32)nc1
target | remaining binding [%]
Serine/threonine-protein kinase PLK4 (PLK4, Homo sapiens, UniProt O00444) | 100
Leucine-rich repeat serine/threonine-protein kinase 2 (LRRK2, Homo sapiens, UniProt Q5S007) | 97
Muscle, skeletal receptor tyrosine-protein kinase (MUSK, Homo sapiens, UniProt O15146) | 100
Mitogen-activated protein kinase kinase kinase 20 (MAP3K20, Homo sapiens, UniProt Q9NYL2) | 95
Mast/stem cell growth factor receptor Kit, autoinhibited (KIT, Homo sapiens, UniProt P10721) | 100
Protein kinase C iota type (PRKCI, Homo sapiens, UniProt P41743) | 100
Mitogen-activated protein kinase 1 (MAPK1, Homo sapiens, UniProt P28482) | 100

Sample 3 — action: inhibitor; concentration: 1 µM
Compound: C=CC(=O)N1CCC[C@@H](n2nc(-c3ccc(Oc4ccccc4)cc3)c3c(N)ncnc32)C1
target | test | inhibition
Interleukin-1 receptor-associated kinase 3 (IRAK3, Homo sapiens, UniProt Q9Y616) | – | 26%
Fibroblast growth factor receptor 3 (FGFR3, Homo sapiens, UniProt P22607, G697C) | – | 64%
Cyclin-dependent kinase-like 1 (CDKL1, Homo sapiens, UniProt Q00532) | enzyme activity | 45%
Phosphatidylinositol 4,5-bisphosphate 3-kinase catalytic subunit alpha isoform (PIK3CA, Homo sapiens, UniProt P42336, H1047Y) | enzyme activity | 20%
Serine/threonine-protein kinase Sgk2 (SGK2, Homo sapiens, UniProt Q9HBY8) | enzyme activity | 10%
Serine/threonine-protein kinase PAK 1 (PAK1, Homo sapiens, UniProt Q13153) | enzyme activity | 2%
Casein kinase I isoform delta (CSNK1D, Homo sapiens, UniProt P48730) | enzyme activity | 5%
Tyrosine-protein kinase ABL1, phosphorylated (ABL1, Homo sapiens, UniProt P00519, Q252H) | – | 47%

Sample 4 — cell line: A-375; concentration: 100 µM; time: 36 h
SMILES | viability [%]
CC(C)NCC(O)c1ccc(NS(C)(=O)=O)cc1 (stereo not drawn) | 91.8
CCCCN(CCCC)CC(O)c1cc(Cl)cc2c1-c1ccc(Cl)cc1/C2=C/c1ccc(Cl)cc1 (stereo not drawn) | 5.17
CCOc1ccc(NC(C)=O)cc1 | 109
CC(C(=O)O)c1ccc(CC2CCCC2=O)cc1 (stereo not drawn) | 119
CCN(CC)CCCC(C)Nc1c2ccc(Cl)cc2nc2ccc(OC)cc12 (stereo not drawn) | -0.606
CCN1CC(CCN2CCOCC2)C(c2ccccc2)(c2ccccc2)C1=O (stereo not drawn) | 114
CCCCC(=O)O[C@H]1CC[C@H]2[C@@H]3CCc4cc(O)ccc4[C@H]3CC[C@]12C | -3
COc1c2occc2cc2ccc(=O)oc12 | 106

Excerpt of the above (sample 1):
Structure (SMILES) | remaining activity [%]
Oc1ccc(-c2nc(-c3ccncc3)c(-c3ccc(F)cc3)[nH]2)cc1 | 96.1
Nc1[nH]nc2nc3ccccc3nc12 | 111
Cc1nc(-c2ccccc2)c(-c2ccncc2)o1 | 91.2
Cc1ccc(Nc2nccc(N(C)c3ccc4c(C)n(C)nc4c3)n2)cc1S(N)(=O)=O | 38.4
Nc1ncnc2n[nH]c(Nc3ccc(F)cc3)c12 | 92.3
